Measured values of several laboratories.
Each line is one published result; not all experiments were run side by side. ± marks the error that the study gave.

O=C1NC2(CC2)COc2ncc(F)cc2[C@H]2COCCN2c2ccn3ncc1c3n2
structural aberrations (CHL; 150 µg/mL, 4 h, without S9): 0.3%

Cc1cccnc1-c1csc(C(=O)Nc2cc(Cl)cc(NS(C)(=O)=O)c2)c1
CC50 (NHDF; cell growth or viability, ATP luminescence; 10 days): > 10 µM

O=C(c1ccnc(N2Cc3cn(Cc4ccc(F)cc4)nc3C2)n1)N1CCOCC1
efflux ratio (MDR1-MDCK; reference: B-A over A-B): 6.7

Cl.NCc1ccc2c(c1)CN(C1CCC(=O)NC1=O)C2=O (stereo not drawn)
minimum viability (SNU-423; CellTiter-Glo; concentration not given, 72 h): 92.3 ± 4.43%

O=C(NCC(F)(F)F)c1cccc(N2Cc3cn(Cc4ccc(F)cc4)nc3C2)c1
efflux ratio (MDR1-MDCK; reference: B-A over A-B): 4.2

O=C(OC[C@@]1(O)C(=O)C=C[C@H]2[C@@H]1[C@H]1C=C[C@@H]2C(=O)[C@]1(O)COC(=O)c1ccccc1)c1ccccc1
viability (SW480; cell growth or viability, MTT; 12.5 µg/mL): 83%

CC(C)OCCOCc1ccc(OCC(O)CN(N=O)C(C)C)cc1 (stereo not drawn)
HPRT mutagenicity (V79; 0.75 mg/mL, 4 h, with and without induced rat S9): negative

CC(=O)N[C@H](C(=O)N[C@H](C(=O)N[C@@H](CCCNC(=N)N)C(=O)N[C@@H](CC(N)=O)C(=O)N[C@@H](CC(=O)O)C(=O)N[C@H](C(=O)N1CCC[C@@H]1C(=O)N1CCC[C@H]1C(=O)N[C@@H](CC(=O)O)C(=O)N[C@@H](CO)C(=O)N[C@@H](CC(C)C)C(=O)N[C@@H](CC(C)C)C(=O)N[C@H](C(=O)N[C@@H](Cc1ccccc1)C(N)=O)C(C)C)C(C)C)[C@@H](C)O)C(C)C
cytoplasmic peptide amount (HEK293T; subcellular fractionation LC-MS; cytoplasm; 20 µM, 2 h): not detected

[N-]=[N+]=N[C@]1(CO)O[C@@H](n2ccc(N)nc2=O)[C@@H](F)[C@@H]1O
CC50 (DBT-9; cytotoxicity): > 100 µM

CN(C)C(=O)c1ccnc(N2Cc3cn(Cc4ccc(F)cc4)nc3C2)n1
efflux ratio (MDR1-MDCK; reference: B-A over A-B): 2.7

COc1ccc(O)cc1-c1c[nH]c2ncc(-c3cncc(C(=O)N(C)C)c3)cc12
cytotoxicity (HEK293T; concentration not given): not toxic

CC(C)C[C@@H]1NC(=O)[C@H](CO)NC(=O)[C@H](CC(=O)O)NC(=O)[C@@H]2CCCN2C(=O)[C@H]2CCCN2C(=O)[C@H](C(C)C)NC(=O)[C@H](CC(=O)O)NC(=O)[C@H](CC(N)=O)NC(=O)[C@H](CCCNC(=N)N)NC(=O)[C@H]([C@@H](C)O)NC(=O)[C@H](C(C)C)NC(=O)CCNC(=O)CCNC(=O)[C@H](Cc2ccccc2)NC(=O)[C@H](C(C)C)NC(=O)[C@H](CC(C)C)NC1=O
cytoplasmic peptide amount (HEK293T; subcellular fractionation LC-MS; cytoplasm; 20 µM, 2 h): not detected

CN(C)C(=O)c1ccnc(N2Cc3cn(Cc4ccc(Cl)cc4)nc3C2)n1
efflux ratio (MDR1-MDCK; reference: B-A over A-B): 1

CN1CCCNC(=O)c2cccc(c2)C(=O)NCCCN(C)CCCNc2cccc3c2C(=O)c2cccc(c2C3=O)NCCC1
viability (SAS; cell growth or viability, CCK-8; 0.5 µM, 48 h): 66.3%

CN(C)C(=O)c1cccc(N2Cc3cn(Cc4ccc(F)c(F)c4)nc3C2)c1
efflux ratio (MDR1-MDCK; reference: B-A over A-B): 1.1

NCCNc1nnnc2c1sc1nc(N3CCOCC3)c3c(c12)CCCC3
percentage of drug-related material (cryopreserved mouse hepatocytes; UHPLC-MS peak area; 1 µM, 20 min): 15.1%

CC1(C)C(NC(=O)C(=NOC2(C(=O)O)CC2)c2csc(N)n2)C(=O)N1OS(=O)(=O)O (stereo not drawn)
CC50 (HFL1; cell growth or viability): > 100 µM

C=CS(=O)(=O)Oc1ccc(OC)c(-c2c[nH]c3ncc(-c4cncc(C(=O)N(C)C)c4)cc23)c1
cytotoxicity (HEK293T; concentration not given): not toxic

A few entries again:
O=C(NCC(F)(F)F)c1cccc(N2Cc3cn(Cc4ccc(F)cc4)nc3C2)c1
efflux ratio (MDR1-MDCK; reference: B-A over A-B): 4.2
